Results from different studies.
Compare with care: the assays were run in different laboratories. Values joined by “and” are separate records of one study, mostly repeats; a detail may differ. ± gives the spread as reported.
B1: enzyme K184A (Streptomyces parvus, UniProt A0A7K3RVR3); chain MYVPEQYRPRDASWTLELIRSNPLALLVTNGPQHPWATHVPVLFAEEPDGPEGPDGLDATGDDLVGRRLLGHLNLMNPHWEALAGAGHALLVFQGPGSYVSPTVYETAPAAPTWDFTSVHVHGALRLIDDPDDLRKIVQATVRAYEREVGTDWDMSESLEYFERLLPGVRGFEIKIESVDSMFALSQEQLPETVTKVIDSFRRSDGGRRQELATMIERAASD
B2: enzyme E188A (Streptomyces parvus, UniProt A0A7K3RVR3); chain MYVPEQYRPRDASWTLELIRSNPLALLVTNGPQHPWATHVPVLFAEEPDGPEGPDGLDATGDDLVGRRLLGHLNLMNPHWEALAGAGHALLVFQGPGSYVSPTVYETAPAAPTWDFTSVHVHGALRLIDDPDDLRKIVQATVRAYEREVGTDWDMSESLEYFERLLPGVRGFEIKIESVDSMFKLSQAQLPETVTKVIDSFRRSDGGRRQELATMIERAASD

The relative abundance of `COc1ccccc1-c1n[nH]c2nc(NC3CCN(C(=O)Cc4ccc(F)cc4F)CC3)ncc12` is reported as 1.06 (bead binding, competition bead pull-down, item: LINJ.35.1230; Leishmania donovani extract; 10 µM; relative to: vehicle).
For `N=C(N)NCCC[C@@H]1NC(=O)[C@H](CCCCNC(=O)CCC(NC(=S)Nc2ccc(CC3CN(CC(=O)O)CCN(CC(=O)O)CCN(CC(=O)O)CCN3CC(=O)O)cc2)C(=O)NCCCC[C@@H]2NC(=O)[C@@H](Cc3ccc(O)cc3)NC(=O)[C@H](CC(=O)O)NC(=O)CNC(=O)[C@H](CCCNC(=N)N)NC2=O)NC(=O)[C@@H](Cc2ccc(O)cc2)NC(=O)[C@H](CC(=O)O)NC(=O)CNC1=O` (stereo partly shown) [scandium-44 labelled], the tissue uptake was 0.023 ± 0.003 %ID/g (ex vivo γ-counting; female athymic nude mice, U-87 MG xenograft, muscle; intravenous, 4 h, together with: cRGD 50 mg/kg blocking).
For `CC[C@H](C)[C@H](NC(=O)[C@H](CO)NC(=O)[C@H](Cc1ccc(O)cc1)NC(=O)[C@H](Cc1ccc(O)cc1)NC(=O)[C@H](CC(N)=O)NC(=O)CNC(=O)[C@H](CO)NC(=O)[C@H](Cc1ccc(O)cc1)NC(=O)[C@H](CO)NC(=O)[C@H](CO)NC(=O)[C@H](CC(N)=O)NC(=O)COCCOCCNC(=O)CN1CCN(CC(=O)O)CCN(CC(=O)O)CCN(CC(=O)O)CC1)C(=O)N[C@@H](CC(C)C)C(N)=O` [copper-64 labelled], “maximum metastasis uptake” read 26.6 %IA/cc (dynamic PET; tamoxifen-induced PDAC mouse model, metastases; 6.5 min, CLDN4-expressing tumours).
The tissue-to-tissue ratio of `CC(C)C[C@@H]1NC(=O)[C@H](CC(=O)O)NC(=O)CNC(=O)[C@H](CCCNC(=N)N)NC(=O)[C@H](Cc2ccccc2)NC(=O)[C@H](CCCCNC(=O)CCc2cn(CCCNC(=O)CN3CCN(CC(=O)O)CCN(CC(=O)O)CCN(CC(=O)O)CC3)nn2)N(C)C(=O)[C@H]2CCCN2C(=O)[C@H](Cc2ccccc2)NC(=O)[C@H](C)NC1=O` is reported as 0.2 ± 0.1 (female CB17 SCID mice, tumour and kidneys; intravenous, dose not given, 90 min, 177Lu-labelled; relative to: tumour over kidneys).
`B1 (enzyme K184A)` has a Km of 1720 µM (N[C@@H](CCCNO)C(=O)O; steady-state kinetics; pH 8, 25 °C, together with: heme).
For `O=C(O)CC[C@H](NC(=O)N[C@@H](CCCCNC(=O)[C@H](Cc1ccc2ccccc2c1)NC(=O)[C@H]1CC[C@H](CNC(=O)CN2CCN(CC(=O)O)CCN(CC(=O)O)CCN(CC(=O)O)CC2)CC1)C(=O)O)C(=O)O` [terbium-161 labelled], the logD was -2.63 ± 0.02 (pH 7.4).
`O=C1NC2(CC2)COc2ncc(F)cc2[C@H]2COCCN2c2ccn3ncc1c3n2`: “serum total bilirubin” 1.7 ± 0.3 µmol/L (Sprague-Dawley rat, female, serum; oral, 5 mg/kg/day, end of recovery, 4-week subacute toxicity).
`Cc1cc(C(=O)Nc2nc3cccc(C)c3n2[C@H]2CCCCN(C(=O)/C=C/CN(C)C)C2)ccn1` gave a survival of 105% and 98.1% and 102% and 112% and 103% and 95% (Trypanosoma brucei brucei; 2T1 wild type; 0.00343 µM).
`CN[C@H](CC(C)C)C(=O)N[C@H]1C(=O)N[C@@H](CC(N)=O)C(=O)N[C@H]2C(=O)N[C@H]3C(=O)N[C@H](C(=O)N[C@H](C(=O)NCc4cn(CC(=O)N[C@H](C(=O)N[C@@H](CCN)C(=O)N[C@H]5CCNC(=O)[C@H]([C@@H](C)O)NC(=O)[C@H](CCN)NC(=O)[C@H](CCN)NC(=O)[C@H](CC(C)C)NC(=O)[C@@H](CC(C)C)NC(=O)[C@H](CCN)NC5=O)[C@@H](C)O)nn4)c4cc(O)cc(O)c4-c4cc3ccc4O)[C@H](O)c3ccc(c(Cl)c3)Oc3cc2cc(c3O[C@@H]2O[C@H](CO)[C@@H](O)[C@H](O)[C@H]2O[C@H]2C[C@](C)(N)[C@H](O)[C@H](C)O2)Oc2ccc(cc2Cl)[C@H]1O` gave a hemolysis of < 5% (sheep erythrocytes; 512 µg/mL, 37 °C; relative to: Triton X-100).
With `CC(C)(C)C(=O)OCOP(=O)(OCOC(=O)C(C)(C)C)C1CCCN(O)C1=O` (stereo not shown) the log LC50 was > -4 log M (Malme-3M).
With `B2 (enzyme E188A)` the Km was 1660 µM (N[C@@H](CCCNO)C(=O)O; steady-state kinetics; pH 8, 25 °C, together with: heme).
`C[C@@H](O)[C@@H]1NC(=O)[C@@H](NC(=O)CCOCCOCCOCCOCCNC(=O)c2ccc(NN)nc2)CSSC[C@@H](C(=O)O)NC(=O)[C@H](Cc2c[nH]cn2)NC(=O)[C@H](CO)NC(=O)[C@H](Cc2ccccc2)NC(=O)[C@@H]2CCCN2C(=O)[C@H](CO)NC(=O)[C@@H]2CCCN2C1=O` [technetium-99m labelled] gave a tissue uptake of 0.09 ± 0.01 %ID/g (mouse HCT-116 xenograft, skin; intravenous, 37 MBq, postmortem after imaging).
`CC(C)C[C@@H]1NC(=O)[C@H](CC(=O)O)NC(=O)CNC(=O)[C@H](CCCNC(=N)N)NC(=O)[C@H](Cc2ccccc2)NC(=O)[C@H](CCCCNC(=O)CCc2cn(CCCNC(=O)CCC(C(=O)O)N3CCN(CC(=O)O)CCN(CC(=O)O)CCN(CC(=O)O)CC3)nn2)N(C)C(=O)[C@H]2CCCN2C(=O)[C@H](Cc2ccccc2)NC(=O)[C@H](C)NC1=O` (stereo partly shown) gave a tissue-to-tissue ratio of 7 ± 1.6 (female CB17 SCID mice, tumour and blood; intravenous, dose not given, 90 min, 177Lu-labelled; relative to: tumour over blood).

Some of these lines once more:
`O=C1NC2(CC2)COc2ncc(F)cc2[C@H]2COCCN2c2ccn3ncc1c3n2`: “serum total bilirubin” 1.7 ± 0.3 µmol/L (Sprague-Dawley rat, female, serum; oral, 5 mg/kg/day, end of recovery, 4-week subacute toxicity).
`Cc1cc(C(=O)Nc2nc3cccc(C)c3n2[C@H]2CCCCN(C(=O)/C=C/CN(C)C)C2)ccn1` gave a survival of 105% and 98.1% and 102% and 112% and 103% and 95% (Trypanosoma brucei brucei; 2T1 wild type; 0.00343 µM).
